Results from different studies.
Each numbered part is a random draw from the data of one study; scales do not carry over between parts. Changes are numbered by the printed parent chain.

Series 1
Target: RNA binding protein fox-1 homolog 2, RRM domain, GST-SBP tag (RBFOX2, Homo sapiens, UniProt O43251-10, residues 100-194)
Technique: RNA Bind-n-Seq
Form: RNA
Matrix: in vitro
Concentration: 365 nM
Notes: natural RNA segment, single round, ends assumed
Relative to: no-protein control
Direction: higher = stronger binding
Constant ends, left off below: GGGAGUUCUACAGUCCGACGAUC … UGGAAUUCUCGGGUGCCAA
Residues (chain): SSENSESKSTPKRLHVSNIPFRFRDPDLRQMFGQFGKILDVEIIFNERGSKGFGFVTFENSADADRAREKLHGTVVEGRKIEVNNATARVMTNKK
`ACUUAGCCCUCAAAUUUCAGUAUCUAUACAGUACUAGACCAUGCAUUCUUAAAAUAUUAGAUACCAGGUAGUAUAUAUUGUUUCUGUACAAAAAUGACUGUAUUCUCUCA`: “RBNS enrichment (R)” 0.353.
`UAUCCCUGUCCCCAGGACCGAAACACAUAGCCUCAUUUCAAAGCGUAGCCAGGUUCCCUCUGCUUUCCUCUGGGAUAUGGAAAGGGGGCCAAGAGGACUUUGGAUCUCUC`: “RBNS enrichment (R)” 0.255.
`GUUUAUUUGUUGUUAAGUUAAACUGGAGAAAGUUUGUCAUCCUCAUUUUCAAACUGAAAACUAAUCAAAUAUAGUGCCUAUUUAGUCUCAAAAUAAGGUAACUAUUAACU` — result for “RBNS enrichment (R)”: 0.619.
`GGUGUGGCAGCUGAGGAAUUGGGUUUCGGGGAGAGUGACUUUUUAAAAAGGACUUAAUUUCUACUACUGCACUAUCUGUUGUGAGAUAAUUAAACAUGCUAUUUAAUUGU`: “RBNS enrichment (R)” 0.769.
`UGUCAGCCAGAAAAAAGGAGAGGUCAAAGGUCUGUUCUUCCUGCUACACAGGGUCUGGUUUUAAAAGUAGAGGGAAACCUCUCCUCCCCUGGUCUUUGUAGCCAUCUUUG` — result for “RBNS enrichment (R)”: 0.535.
Under “RBNS enrichment (R)”, `UGCCUCUGACACACUGCACACGUCUAGAGGCUGUAAUUGGAAAUAGGCUUUUGGUUUCCUGUGCCAUUCAAGUUUGGGGCUUUCAUUUGGUUACAGAGUUCAGCGCUUGG` is recorded as 1.98.
For `ACUCUGGUUACACGGAUCACCUUUGUUGUGCUAGAAUGGAAGCUACAUUUCUGGAAUGUGUGUACCCUGCUGGUGACUUUGCAGCCCCGCCUUGCCUGACCUCCCACCCU`, “RBNS enrichment (R)” read 2.54.
`GUGUAAGGCCAGGCUUUAGUGGUCAUUAGACACCACAUGUGUUAUGAGCCCCUUACCCAUAGGGUUGGGGGUGGGAAGAGAAGCAUAUUUUUUUGCCAUUCCGGAAGCAA` — result for “RBNS enrichment (R)”: 0.598.
Under “RBNS enrichment (R)”, `AAGCAACACCGCCCAGCCCUGCUCCAGGCCCCUGCACUCCGCCCACCCCUACCCUGGCUGCACCUGAGCUUGCUGCCCCUGGGGAUGUUGCCCAGUGGCUGUGCACUGCU` is recorded as 2.48.
`GUCAUGCUCCUGCAGGAAGAUGAGUCAUUUUUAGCACCACCUGAAGACUUUUAUUUAAAACAGCUUUCAUAUUAAACUGCUGCUGUAUUAAACAGACCUUAGUUUCCAUA` — result for “RBNS enrichment (R)”: 0.468.
Under “RBNS enrichment (R)”, `AAAGGAUGAUGGAGCUUCCUGGUGUCGGGUGAACAUGUUUUAAAAACUCAUUGUUCUAGUGAAGAUUAUGUUAAGCAAGCCUAAAAAAAGAUGACAACCAGUUCAUACAC` is recorded as 0.569.
For `CCAGACACAUGCUGACAGACACGAGGGAAGCAAGACAGAUUCUUUCUCCACUGUUAAACUCUGGGGAGUGGUAUCAGCUUUUGAAACCCUGCUCUAGACUCUUACAAAAU`, “RBNS enrichment (R)” read 0.25.

Series 2
Target: CCNB1, cyclin fold, Cln2 fusion (human)
Technique: yeast growth competition, sequencing
Matrix: yeast
Notes: strong parent motif
Relative to: not given
Direction: higher = stronger binding
Starting sequence: BRCA2 docking peptide (human); PSIKRNLLNEFDR; partner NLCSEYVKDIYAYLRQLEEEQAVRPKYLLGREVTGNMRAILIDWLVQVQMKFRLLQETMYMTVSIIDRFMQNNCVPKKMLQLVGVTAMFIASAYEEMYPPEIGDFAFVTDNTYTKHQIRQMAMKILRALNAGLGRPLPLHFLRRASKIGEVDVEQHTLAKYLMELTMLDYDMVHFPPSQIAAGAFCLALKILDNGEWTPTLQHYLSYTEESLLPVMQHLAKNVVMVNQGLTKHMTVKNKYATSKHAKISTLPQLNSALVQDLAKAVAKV
`PSIKRNLLNEFNR [D12N]` — result for “normalised enrichment score”: 2.47.
Under “normalised enrichment score”, `PSLKRNLLNEFDR [I3L]` is recorded as 1.59.
Under “normalised enrichment score”, `PSIKRNLLAEFDR [N9A]` is recorded as 3.45.
For `PSIKRNSLNEFDR [L7S]`, “normalised enrichment score” read -0.126.
For `PSIKWNLLNEFDR [R5W]`, “normalised enrichment score” read 0.451.
`RSIKRNLLNEFDR [P1R]`: “normalised enrichment score” 1.88.
Under “normalised enrichment score”, `PSIKRTLLNEFDR [N6T]` is recorded as 0.798.
`WSIKRNLLNEFDR [P1W]` — result for “normalised enrichment score”: 4.23.
`PSIKRLLLNEFDR [N6L]` — result for “normalised enrichment score”: 0.413.
For `PSIKRNLLNELDR [F11L]`, “normalised enrichment score” read 1.15.
For `PSCKRNLLNEFDR [I3C]`, “normalised enrichment score” read 2.03.
`PSIKRNLLKEFDR [N9K]`: “normalised enrichment score” 2.87.
Under “normalised enrichment score”, `PSIKRNLLNEFGR [D12G]` is recorded as 1.22.
Under “normalised enrichment score”, `PSIKRNLLNEFDH [R13H]` is recorded as 1.53.
For `PSIKRNLLNEFDP [R13P]`, “normalised enrichment score” read 1.32.
For `PSIKRNLLNEFDV [R13V]`, “normalised enrichment score” read 2.82.
For `PSIKRNALNEFDR [L7A]`, “normalised enrichment score” read 0.474.
For `PSIKRNLLNEFVR [D12V]`, “normalised enrichment score” read 1.55.
`PSIKKNLLNELDR [R5K F11L]`: “normalised enrichment score” 0.627.
Under “normalised enrichment score”, `PSIKRNLLNIFDR [E10I]` is recorded as 0.727.

Series 3
Target: Interferon regulatory factor 5, full length, phosphomimetic (IRF5, Homo sapiens, UniProt Q13568-2, residues 1-514, K96S/S451D/S453D/S456D/S462D)
Technique: protein-binding microarray
Form: double-stranded DNA, one strand shown
Matrix: in vitro
Concentration: 250 nM
Notes: 60-bp whole probe
Added: salmon DNA 0.4 mg/ml
Relative to: random background probes
Direction: higher = stronger binding
Constant ends, left off below: GCCTAGCAC … GTCTTGATTCGCTTGACGCTGCTG
The log fluorescence of `GACGGTTTCCTTATCCCGACGTGCTAG` is reported as 1.04 z-score.
`GACGGTAACGGTATCGGGACGTGCTAG` has a log fluorescence of 0.731 z-score.
With `GACGGTTTCCTTATCATGACGTGCTAG` the log fluorescence was 0.856 z-score.
`GACGATATCAGTCTAGAGACGTGCTAG` gave a log fluorescence of 1.29 z-score.
`TTAGCTTTCGGACTGGGTTAGTGCTAG` gave a log fluorescence of 6.85 z-score.
`GACGGTTTCCTTATGCTGACGTGCTAG` gave a log fluorescence of 0.736 z-score.
For `GACGTTCTCCTTATCCTGACGTGCTAG`, the log fluorescence was 0.174 z-score.
`GACGGTTTGCTACTGCTGACGTGCTAG` has a log fluorescence of -0.14 z-score.
With `GACTGTTTCGGGTATCGGGACGTGCTA` the log fluorescence was 8.45 z-score.
`TTAGGTCACCTTTTCCTTTAGTGCTAG` gave a log fluorescence of 0.193 z-score.
The log fluorescence of `TTAGGTATCGGTTTTCGGTTAGTGCTA` is reported as 9.1 z-score.
`GACGAAATGAGACTGGAGACGTGCTAG` gave a log fluorescence of 0.658 z-score.
For `TTAGGTTTCGGTATCGGTGAGTGCTAG`, the log fluorescence was 10.5 z-score.
For `GACGGTTTCCTACTGCTGACGTGCTAG`, the log fluorescence was 0.569 z-score.
`TTAGGCATCGGTATCGGTTAGTGCTAG` gave a log fluorescence of 5.26 z-score.
The log fluorescence of `TTAGGTTCCGGTTTCTGTTAGTGCTAG` is reported as 5.35 z-score.
The log fluorescence of `TCATCGATTTCTCTTTCCACTGTGCTA` is reported as 2.38 z-score.
`TTAGATTTCGGGTTTAGATTAGTGCTA` gave a log fluorescence of 4.97 z-score.
`TTAGGTCTCCTACTGCATTAGTGCTAG` gave a log fluorescence of -0.247 z-score.
`TTAGAACAGGGGACTGGATTAGTGCTA` has a log fluorescence of -0.413 z-score.
With `GACGAACTGAGACTGAAGACGTGCTAG` the log fluorescence was -0.154 z-score.
With `GGCGGTATCCTACTGCTGACGTGCTAG` the log fluorescence was -0.393 z-score.
The log fluorescence of `TTAGTTTTCGACTTTCGGTTAGTGCTA` is reported as 10.4 z-score.
For `TTAGGTATCGGATTGGGTTAGTGCTAG`, the log fluorescence was 2.21 z-score.
With `GACGGTCTCGGTCTCGGAACGTGCTAG` the log fluorescence was 0.253 z-score.

Series 4
Target: RING finger protein unkempt homolog, zinc fingers 1-6, GST-SBP tag (UNK, Homo sapiens, UniProt Q9C0B0, residues 30-357)
Chain of UniProt Q9C0B0 (30-357, looked up): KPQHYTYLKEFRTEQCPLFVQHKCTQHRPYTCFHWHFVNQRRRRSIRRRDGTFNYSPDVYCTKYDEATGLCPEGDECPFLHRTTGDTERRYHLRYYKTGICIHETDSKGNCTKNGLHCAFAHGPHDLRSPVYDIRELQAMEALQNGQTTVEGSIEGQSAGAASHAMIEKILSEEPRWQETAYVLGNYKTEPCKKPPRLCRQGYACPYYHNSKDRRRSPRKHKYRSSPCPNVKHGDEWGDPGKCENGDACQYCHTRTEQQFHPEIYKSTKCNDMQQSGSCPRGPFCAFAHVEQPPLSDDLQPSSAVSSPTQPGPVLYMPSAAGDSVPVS
Technique: RNA Bind-n-Seq
Form: RNA
Matrix: in vitro
Concentration: not given
Notes: RNA with constant flanks, human-mouse chimeric sites, ends assumed
Relative to: input RNA pool
Direction: higher = stronger binding
Constant ends, left off below: GGGAGUUCUACAGUCCGACGAUC … CAACAGAGGAUUGAGCAUCA
`UUGAAAAACACAGAUAUCAAAGUUGUUGACUUUGGAAGUGCAACGUAUGAUGAUGAACAUCACAGUACUUUGGUGUCUACCCGGCACUACAGGGCUCCCGAGGUCAUUUUGGCUUUAGGU` has a bound/input enrichment of 0.422 ratio.
For `GACAGUGAAGAAGAAAUUAGAGAAGCAUUCCGUGUGUUUGAUAAGGAUGGCAAUGGCUAUAUUAGUGCAGCAGAGCUUCGCCAUGUGAUGACAAACCUUGGCGAGAAGUUAACAGAUGAA`, the bound/input enrichment was 1.9 ratio.
With `GAUAAGAAAAGCUUGUUGGAGACCCGAUUGCAUGUCACUGGUAGAGACCUGAGGUGUCAAAUAGCUGAAACUUUCGGAUUUCAAGAAAAUUAUAUCAAGAUCGUAAUAAAUAAGAAACAG` the bound/input enrichment was 0.28 ratio.
The bound/input enrichment of `AAAGAGAAACUAAAGCAAACUGAUUGAAAGAGGAUUGGCAAAGAGAAUUUCAUAGAGAAACUAGGAUUUAUUAGCAAACAUGAGUUAUAUUCCAGAGCGUCUCAGAAAACCCCAGCCAAC` is reported as 3.77 ratio.
`ACAGUUAUAUUGUUGAGGUUUGUAUUUAUAUAUUCUUGUAGUGUCUGCUUGCCUGUGACUUCUGGUAAAAUAAAAUAAGCCUUUGAAAAUAUUUUAGCAUGGUAUUUUUCUAAAAAUAAA` has a bound/input enrichment of 1.63 ratio.
The bound/input enrichment of `GCUGAAAAUGAAGAAGAGGCAGCUGAUGUCUGGUACAACCUGGGGCACAUAGCUGUGGGAAUAGGAGAUACAAACUUGGCCCAUCAGUGCUUCAGGCUGGCCCUGGUCCACAACAACCAC` is reported as 0.283 ratio.
`CAGCGCCGAGGCCGCGGUUUCCCCCUGGGCCUCCCCAGCAGCAGCCAUGGGCAUCAAAUUUUUAGAAGUUAUUAAACCUUUCUGUGCAGUUCUACCAGAAAUUCAGAAACCGGAAAGGAA` gave a bound/input enrichment of 4.14 ratio.
With `AAUUUCCUGUCAUACUUUUUAGACAUUCACAUCAGACUUACAGAGCACCUGGCCACAUUCUAGGUUUGAAUUAUUUCUCAGCUAUGGAUAUGAUCAAAGAGUGAAAAUGCUUAACUAAUG` the bound/input enrichment was 0.513 ratio.
For `CUGAGGAUACCACUGAAGAGACCUUAAAAGAAUCAUUUGAGGGCUCUGUUCGUGCAAGAAUAGUCACCUGACCGGGAACUGGUUCUUCCAAAGGGUUUUGGUUUUGUGACUUUAAUAGUG`, the bound/input enrichment was 0.467 ratio.
For `CGCUUGGAUGAGGCGGGUGUCACAGAUGAAGUGCUAGAUUCUGCCAUGCAAGCCUUCUUACUAGAAAUCAUUGUUAAGCAUGGGGAGCCGGCACCUUAUUUAUGUAACAAAGAUCCGUUU`, the bound/input enrichment was 0.2 ratio.
